{"data": "Assay results from different studies", "note": "Each numbered part is a random draw from the data of one study; scales do not carry over between parts."}
{"data": "Study 1", "target": "Histone acetyltransferase KAT6A, both winged helices, GST fusion (KAT6A, Homo sapiens, UniProt Q92794, residues 1-181)", "method": "protein binding microarray", "form": "double-stranded DNA, one strand shown", "medium": "in vitro", "concentration": "not given", "notes": "8-mer, flanks averaged, mean of 2 arrays, mostly near background", "relative to": "not given", "reading": "higher = stronger binding", "Construct (chain)": "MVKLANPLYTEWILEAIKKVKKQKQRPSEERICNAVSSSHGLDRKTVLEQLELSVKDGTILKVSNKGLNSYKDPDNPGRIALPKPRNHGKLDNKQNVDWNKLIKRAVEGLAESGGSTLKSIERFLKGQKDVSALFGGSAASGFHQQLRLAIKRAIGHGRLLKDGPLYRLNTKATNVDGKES"}
{"Oligonucleotide": "AAAGACCC", "E-score": -0.0138}
{"Oligonucleotide": "GTAAAAAC", "E-score": -0.125}
{"Oligonucleotide": "AATACCTC", "E-score": -0.0712}
{"Oligonucleotide": "AAACAACG", "E-score": 0.0913}
{"Oligonucleotide": "AGAGATAT", "E-score": -0.227}
{"Oligonucleotide": "CCTCTTAC", "E-score": -0.172}
{"Oligonucleotide": "AGCGTCTA", "E-score": -0.0554}
{"Oligonucleotide": "AGTCCACA", "E-score": -0.0979}
{"Oligonucleotide": "AACAGCTT", "E-score": -0.0191}
{"Oligonucleotide": "CTCGAACA", "E-score": -0.174}
{"Oligonucleotide": "GTCGCCAA", "E-score": -0.0256}
{"Oligonucleotide": "CAATAAGA", "E-score": -0.183}
{"Oligonucleotide": "AAGAATCT", "E-score": -0.175}
{"Oligonucleotide": "AGATTAAC", "E-score": -0.0206}
{"Oligonucleotide": "CTGGAAAA", "E-score": -0.0204}
{"Oligonucleotide": "GGTTCGTA", "E-score": -0.0373}
{"Oligonucleotide": "GTAACAGA", "E-score": -0.0355}
{"Oligonucleotide": "CGATGTGA", "E-score": -0.00456}
{"Oligonucleotide": "AGAGGTAA", "E-score": -0.175}
{"Oligonucleotide": "AAAGTTAT", "E-score": -0.0156}
{"Oligonucleotide": "GTGCGGCA", "E-score": 0.162}
{"Oligonucleotide": "GTGAGTAA", "E-score": -0.0602}
{"Oligonucleotide": "AGCCGCCG", "E-score": 0.329}
{"Oligonucleotide": "GGATCTCA", "E-score": -0.0296}
{"Oligonucleotide": "CAGTGCGC", "E-score": 0.236}
{"data": "Study 2", "target": "RNA binding protein fox-1 homolog 2, RRM domain, GST-SBP tag (RBFOX2, Homo sapiens, UniProt O43251-10, residues 100-194)", "method": "RNA Bind-n-Seq", "form": "RNA", "medium": "in vitro", "concentration": "365 nM", "notes": "natural RNA segment, single round, ends assumed", "relative to": "no-protein control", "reading": "higher = stronger binding", "shared flanks, not repeated": "GGGAGUUCUACAGUCCGACGAUC … UGGAAUUCUCGGGUGCCAA", "Target sequence (chain)": "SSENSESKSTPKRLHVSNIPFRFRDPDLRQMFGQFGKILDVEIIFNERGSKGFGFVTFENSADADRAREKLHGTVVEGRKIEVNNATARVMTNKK"}
{"Oligonucleotide": "AUAACACUAAAUUCUUCCUGAGAAAUGACUCCUCUUGGUUUGGUUUGAAGUUUUUCAGUGAAGGAAAAGGCCUGAGAUAGGAAGCAGUGCCCUCGCUUCAUGAGGUGGCA", "RBNS enrichment (R)": 0.593}
{"Oligonucleotide": "GGAUGUCUUUGGUAUUUUCUGUAGUAGAAACUAAAGCAAAGACCACAAGUUUCAGAGCAUGGAGACAUUCCUGCUGAAUCGCCUUCUCACCUCCUCGGCAAUUGCUCAUU", "RBNS enrichment (R)": 0.333}
{"Oligonucleotide": "GACUUGAUAGCCAGGCUGACUGGGUUCUAGGCAGGCCCUCUGGAAAGGUAGCUCACCUAACAAAGCUCCUCCAUCUCAGCAUGCCAGACCCACUUUGAAAUCUCACAGAA", "RBNS enrichment (R)": 0.356}
{"Oligonucleotide": "CAUGGAGAACAGGAGCCGGGCCCUGGGAUCCUUCUGUUCUGUUAAACAGAACAGAACAGCCUUUGCACUAAAUUAGUGACUCGCGCAGUGAACACAGGCUGCGAUGCUCU", "RBNS enrichment (R)": 0.373}
{"Oligonucleotide": "GACCCCUCUGAGUGGUUGGAGGCAGUGCCCCAGUGCCCAGAAAUCCCACCAUUAGUGAUUGUUUUUUAUGAGAAAGAGGCGUGGAGAAGUAUUGGGGCAAUGUGUCAGGG", "RBNS enrichment (R)": 0.807}
{"Oligonucleotide": "AUUGAAAAAAAAAAAAAAACCUACACGAGCACCGUGAUUUCAAGUAAUAAACAGAAAAUGAAACACACAUUGACUCCCGCCUGCUCGCCUAGUGGGGGGAUCUGGCCUUG", "RBNS enrichment (R)": 0.672}
{"Oligonucleotide": "GCAGAGUGGCGAUAUAUUUAUCAGAAAGAUUAUAAAGUGUGUCCAGUUUUGCCUGUCUAUAAAAGAUGAUAGUAAUUUACCAAGUGACAUUUGCAGAGAAACAGGUGUAC", "RBNS enrichment (R)": 0.504}
{"Oligonucleotide": "UAUGAUAUAUUUCAGCUUAAAGUUAUGUUAUUAUAUGUGGAAGUGUAAAUAUAGAUUUGGUGUUUUGAAUCUUGAGUUUUAGUGUUUAUUGUGUUUCUGGUUUCUGAUUU", "RBNS enrichment (R)": 2.4}
{"Oligonucleotide": "UCCAGCCUUGCCAGCCUGACUCAGAUCCUCAUCUCUGGGCCUUUCUCCCUCCGAUGUUGGACUGCCUGAUGCUCCCAAUGACAUAUCCAAUGCUCCUGGCAUUUCUGGAG", "RBNS enrichment (R)": 0.539}
{"Oligonucleotide": "AUUUAUCUCAUCUGCAGAUGUUGAGAAUGUAUGCAUUAUGUAAAAUGCUUGUUUUUUUAUCCCUGUUGAGUUUUUUUAAUUAAACGACACAAAACUACUACAUUGCCGAU", "RBNS enrichment (R)": 0.786}
{"Oligonucleotide": "GCUGGGAAGAGAAGAGGGCCCAGCCCAGAGCCACCUGGAUCUAUCCCUGCGGCCUCCACACCUGAACUUGCCUAACUAACUGGCAGGGGAGACAGGAGCCUAGCGGAGCC", "RBNS enrichment (R)": 0.178}
{"Oligonucleotide": "AGGACAGGCAAGAGCCUCACAAGUGGGACUCUGGGCCUCUGACCAGCUGUGCGGCAUGGGCUAAGUCACUCUGCCCUUCGGAGCCUCUGGAAGCUUAGGGCACAUUGGUU", "RBNS enrichment (R)": 0.748}
{"data": "Study 3", "target": "Ras GTPase-activating protein-binding protein 1, full length (G3BP1, Homo sapiens, UniProt Q13283)", "method": "RNA Bind-n-Seq", "form": "RNA", "medium": "in vitro", "concentration": "200 nM", "notes": "whole 134-nt RNA, ends assumed", "together with": "150 mM LiCl", "relative to": "input library", "reading": "higher = stronger binding", "each molecule": "7-deaza-guanosine replaces G", "shared flanks, not repeated": "GGGAGUUCUACAGUCCGACGAUC … UGGAAUUCUCGGGUGUCAAGG", "sequence of UniProt Q13283 (whole entry, looked up)": "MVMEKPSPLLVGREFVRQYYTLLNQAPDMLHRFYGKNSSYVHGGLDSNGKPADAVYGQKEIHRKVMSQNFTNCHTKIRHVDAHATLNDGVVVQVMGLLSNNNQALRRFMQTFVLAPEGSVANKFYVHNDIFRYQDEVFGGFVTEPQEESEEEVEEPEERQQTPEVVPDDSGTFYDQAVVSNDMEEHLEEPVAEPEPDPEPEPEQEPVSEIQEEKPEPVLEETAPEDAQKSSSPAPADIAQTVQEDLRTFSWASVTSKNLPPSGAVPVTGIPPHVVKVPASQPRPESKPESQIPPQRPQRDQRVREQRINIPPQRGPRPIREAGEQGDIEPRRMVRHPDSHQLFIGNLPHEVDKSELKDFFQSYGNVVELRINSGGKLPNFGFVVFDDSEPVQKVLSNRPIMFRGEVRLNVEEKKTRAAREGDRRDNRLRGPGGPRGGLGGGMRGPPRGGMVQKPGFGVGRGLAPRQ"}
{"Oligonucleotide": "GUCCUGUGCUACACAUCGUAUGUACCGAAUCGGAAAAAGGUUUUUUUGGAAAAAAAGGAAAGUAUUAUGUUACGCCGUUCGGAUCUGCAC", "log2 enrichment": -1.78}
{"Oligonucleotide": "CAAGUCCUGUGCUACACAUCGUAUGUACCGAAUCGGGGCCGGGGCCGGGGCCGGGGAAAGUAUUAUGUUACGCCGUUCGGAUCUGCACUU", "log2 enrichment": -0.285}
{"Oligonucleotide": "CAAGUCCUGUGCUACACAUCGUAUGUACCGAAUCGGUGGAAAAAAAGGUUUUUGGAAAGUAUUAUGUUACGCCGUUCGGAUCUGCACUUC", "log2 enrichment": -1.51}
{"Oligonucleotide": "CAAGUCCUGUGCUACACAUCGUAUGUACCGAAUCGGGGAGGGGUGGGGUUUGGGGAAAGUAUUAUGUUACGCCGUUCGGAUCUGCACUUC", "log2 enrichment": -0.0847}
{"Oligonucleotide": "UGGCCCUGGUGGCAUGCUGGGAGGAAGAGGUGGCCUCAUGGAUCGUGGUGGUCCCGGUGGAAUGUUCAGAGGUGGCCGUGGUGGAGACAG", "log2 enrichment": 0.295}
{"Oligonucleotide": "AAGUCCUGUGCUACACAUCGUAUGUACCGAAUCGGCCCCGGGCCCCGGGGCCCCGGGAAAGUAUUAUGUUACGCCGUUCGGAUCUGCACU", "log2 enrichment": -1.94}
{"Oligonucleotide": "CUCAAGUCCUGUGCUACACAUCGUAUGUACCGAAUCGGCCGGCCGGGGCCGGGAAAGUAUUAUGUUACGCCGUUCGGAUCUGCACUUCCA", "log2 enrichment": 0.64}
{"Oligonucleotide": "CCUGUGCUACACAUCGUAUGUACCGAAUCGGGGAAAAAAGGAAAAAAGGGAAAAAAGGGGAAAGUAUUAUGUUACGCCGUUCGGAUCUGC", "log2 enrichment": 0.453}
{"Oligonucleotide": "AGUCCUGUGCUACACAUCGUAUGUACCGAAUCGGGUUUUUGGUUUUUGGUUUUUGGGGAAAGUAUUAUGUUACGCCGUUCGGAUCUGCAC", "log2 enrichment": -0.271}
{"Oligonucleotide": "CAAGUCCUGUGCUACACAUCGUAUGUACCGAAUCGGGGAAAGGAAAGGGGAAAGGGAAAGUAUUAUGUUACGCCGUUCGGAUCUGCACUU", "log2 enrichment": -0.634}
{"Oligonucleotide": "CACAGACAACACGCACCCACACAGACACAGAGGGAAGGGGUUGGGAUGGGGACAGGGUGCACAGCAGGGCGGGGUAGGCCCCCAGCCCCU", "log2 enrichment": 0.754}
{"data": "Study 4", "target": "Protein C-ets-1 (ETS1, Homo sapiens, UniProt P14921, residues 1-441, K379A, full length assumed)", "method": "protein-binding microarray", "form": "double-stranded DNA, one strand shown", "medium": "in vitro", "concentration": "not given", "notes": "k-mer, scored over probes, only values ≥0.25", "reading": "higher = stronger binding", "Construct (chain)": "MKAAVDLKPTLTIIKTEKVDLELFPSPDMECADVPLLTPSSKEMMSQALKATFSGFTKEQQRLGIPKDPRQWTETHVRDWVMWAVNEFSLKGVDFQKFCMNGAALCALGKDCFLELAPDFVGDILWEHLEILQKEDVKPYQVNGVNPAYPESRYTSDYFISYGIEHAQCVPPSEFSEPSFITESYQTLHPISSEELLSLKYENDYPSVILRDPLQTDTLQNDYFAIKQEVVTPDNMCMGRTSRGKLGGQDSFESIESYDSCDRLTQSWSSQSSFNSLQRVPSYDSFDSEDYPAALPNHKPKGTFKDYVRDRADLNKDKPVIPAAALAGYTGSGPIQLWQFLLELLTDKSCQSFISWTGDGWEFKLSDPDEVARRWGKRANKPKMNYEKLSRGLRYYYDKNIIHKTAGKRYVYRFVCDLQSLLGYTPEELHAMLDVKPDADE"}
{"Oligonucleotide": "CACATATC", "E-score": 0.293}
{"Oligonucleotide": "CCCGGTGA", "E-score": 0.284}
{"Oligonucleotide": "AAATCACC", "E-score": 0.258}
{"Oligonucleotide": "ATACCGTG", "E-score": 0.272}
{"Oligonucleotide": "ACATGTAC", "E-score": 0.265}
{"Oligonucleotide": "TAAACCTA", "E-score": 0.251}
{"Oligonucleotide": "ACGGTACT", "E-score": 0.291}
{"Oligonucleotide": "CGCCCCTC", "E-score": 0.277}
{"Oligonucleotide": "AACGCCGG", "E-score": 0.33}
{"Oligonucleotide": "AACCGGGA", "E-score": 0.449}
{"Oligonucleotide": "AGACGTCC", "E-score": 0.258}
{"Oligonucleotide": "ACCGGAAC", "E-score": 0.477}
{"Oligonucleotide": "AGTAGACG", "E-score": 0.286}
{"Oligonucleotide": "ATATACAA", "E-score": 0.336}
{"Oligonucleotide": "TACAGGAA", "E-score": 0.293}
{"Oligonucleotide": "CACATTAC", "E-score": 0.265}
{"Oligonucleotide": "AGTATATA", "E-score": 0.269}
{"note": "Some of these lines once more (study 1):"}
{"Oligonucleotide": "GTAACAGA", "E-score": -0.0355}
{"Oligonucleotide": "CTGGAAAA", "E-score": -0.0204}
{"Oligonucleotide": "GGATCTCA", "E-score": -0.0296}
{"Oligonucleotide": "AAAGTTAT", "E-score": -0.0156}
{"Oligonucleotide": "CTCGAACA", "E-score": -0.174}
{"Oligonucleotide": "AAAGACCC", "E-score": -0.0138}
{"Oligonucleotide": "GGTTCGTA", "E-score": -0.0373}
{"Oligonucleotide": "GTGAGTAA", "E-score": -0.0602}
{"Oligonucleotide": "AGTCCACA", "E-score": -0.0979}
